# Experimental data gathered from unrelated publications.
# Lines come from different studies, so protocols differ.
# Sample: plasma
Compound,assay,system,setting,scale,endpoint,value
N#CCNC(=O)c1ccc(-c2ccnc(Nc3ccc(N4CCOCC4)cc3)n2)cc1,,healthy volunteers,"oral, dose not given, added: rifampin multiple-dose",reference: with single-dose rifampin,Cmax decrease,29%
COC(=O)c1ccc2c(c1)NC(=O)/C2=C(\Nc1ccc(N(C)C(=O)CN2CCN(C)CC2)cc1)c1ccccc1,,healthy volunteers,"oral, 150 mg, added: pirfenidone",,Cmax geometric LS mean,30.4 ng/mL
CNC(=O)c1cc(Oc2ccc(NC(=O)Nc3ccc(Cl)c(C(F)(F)F)c3)cc2)ccn1,,patients,"oral, added: rifampin",reference: with over without rifampin,Cmax ratio,1.25
O=C(c1cccnc1-c1ccncc1)N1CCC(O)(Cc2ccccc2)CC1,,healthy Japanese adults,"oral, 200 mg single dose, geometric mean, PK/QTc set",,Cmax,413 ng/mL
N#CCNC(=O)c1ccc(-c2ccnc(Nc3ccc(N4CCOCC4=O)cc3)n2)cc1,,healthy volunteers,"dose not given, added: ritonavir multiple-dose",reference: with ritonavir over alone,Cmax geometric mean ratio,130%
N[C@@H]1c2ccccc2OC12CCN(c1cnc3c(N4CCCc5ncccc54)n[nH]c3n1)CC2,,advanced metastatic solid tumour patients,"oral, 10 mg once daily, cycle 1 day 15, geometric mean",,Cmax,150 ng/mL
FC(F)(F)c1ccc(CNc2ccc(Cc3c[nH]c4ncc(Cl)cc34)cn2)cn1,,healthy volunteers,"oral, 600 mg, added: rifampin",reference: with rifampin over alone,Cmax ratio,0.67
NC(=O)c1[nH]cnc1N,,leiomyosarcoma patients,"intravenous, dose not given, cycle 2 day 1, added: dacarbazine co-administered",reference: cycle 1 day 1,Cmax reduction,77.4%
CNC(=O)c1cc(Oc2ccc(NC(=O)N(c3ccc(Cl)c(C(F)(F)F)c3)[C@@H]3O[C@H](C(=O)O)[C@@H](O)[C@H](O)[C@H]3O)cc2)ccn1,,patients,"oral, geometric mean, added: rifampin",reference: with rifampin over without rifampin,Cmax ratio,2.1
COc1ccc([C@@H](O)c2cc(-c3ncnc4cc(N5CCOCC5)ccc34)c(F)cc2Cl)nn1,mixed model,healthy volunteers,"oral, 100 mg, high-fat fed tablet test arm",,Cmax geometric LS mean,286 ng/mL
